Measurements collected from several papers.
Parts stem from different laboratories: compare values within a part only.
Sequence of UniProt Q15375 (whole entry, looked up): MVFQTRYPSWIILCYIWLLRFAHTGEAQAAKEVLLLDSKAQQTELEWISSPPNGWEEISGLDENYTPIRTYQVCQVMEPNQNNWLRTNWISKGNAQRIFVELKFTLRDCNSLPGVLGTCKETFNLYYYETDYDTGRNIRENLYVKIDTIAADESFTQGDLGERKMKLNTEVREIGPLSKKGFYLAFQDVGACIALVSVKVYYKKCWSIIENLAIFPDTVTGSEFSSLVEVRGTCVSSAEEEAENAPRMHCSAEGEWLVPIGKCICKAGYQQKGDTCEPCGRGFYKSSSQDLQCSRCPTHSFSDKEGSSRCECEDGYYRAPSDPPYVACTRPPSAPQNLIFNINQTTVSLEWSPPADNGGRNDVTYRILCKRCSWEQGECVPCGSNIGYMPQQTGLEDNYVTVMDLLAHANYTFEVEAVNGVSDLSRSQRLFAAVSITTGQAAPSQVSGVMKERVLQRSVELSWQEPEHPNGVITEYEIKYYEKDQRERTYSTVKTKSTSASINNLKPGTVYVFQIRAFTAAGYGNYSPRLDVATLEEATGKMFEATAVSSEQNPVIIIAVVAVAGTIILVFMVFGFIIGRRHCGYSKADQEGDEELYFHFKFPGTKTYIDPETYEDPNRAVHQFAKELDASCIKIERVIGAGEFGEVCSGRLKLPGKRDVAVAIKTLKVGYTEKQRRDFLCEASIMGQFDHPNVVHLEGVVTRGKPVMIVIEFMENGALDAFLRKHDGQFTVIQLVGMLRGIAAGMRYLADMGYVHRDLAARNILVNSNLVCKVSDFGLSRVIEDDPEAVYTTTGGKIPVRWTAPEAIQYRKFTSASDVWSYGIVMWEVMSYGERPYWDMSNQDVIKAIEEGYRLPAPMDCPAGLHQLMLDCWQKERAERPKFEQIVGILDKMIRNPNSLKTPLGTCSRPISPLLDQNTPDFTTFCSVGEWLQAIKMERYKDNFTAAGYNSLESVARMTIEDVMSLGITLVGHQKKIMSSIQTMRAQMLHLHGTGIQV
Sequence of UniProt Q12851 (whole entry, looked up): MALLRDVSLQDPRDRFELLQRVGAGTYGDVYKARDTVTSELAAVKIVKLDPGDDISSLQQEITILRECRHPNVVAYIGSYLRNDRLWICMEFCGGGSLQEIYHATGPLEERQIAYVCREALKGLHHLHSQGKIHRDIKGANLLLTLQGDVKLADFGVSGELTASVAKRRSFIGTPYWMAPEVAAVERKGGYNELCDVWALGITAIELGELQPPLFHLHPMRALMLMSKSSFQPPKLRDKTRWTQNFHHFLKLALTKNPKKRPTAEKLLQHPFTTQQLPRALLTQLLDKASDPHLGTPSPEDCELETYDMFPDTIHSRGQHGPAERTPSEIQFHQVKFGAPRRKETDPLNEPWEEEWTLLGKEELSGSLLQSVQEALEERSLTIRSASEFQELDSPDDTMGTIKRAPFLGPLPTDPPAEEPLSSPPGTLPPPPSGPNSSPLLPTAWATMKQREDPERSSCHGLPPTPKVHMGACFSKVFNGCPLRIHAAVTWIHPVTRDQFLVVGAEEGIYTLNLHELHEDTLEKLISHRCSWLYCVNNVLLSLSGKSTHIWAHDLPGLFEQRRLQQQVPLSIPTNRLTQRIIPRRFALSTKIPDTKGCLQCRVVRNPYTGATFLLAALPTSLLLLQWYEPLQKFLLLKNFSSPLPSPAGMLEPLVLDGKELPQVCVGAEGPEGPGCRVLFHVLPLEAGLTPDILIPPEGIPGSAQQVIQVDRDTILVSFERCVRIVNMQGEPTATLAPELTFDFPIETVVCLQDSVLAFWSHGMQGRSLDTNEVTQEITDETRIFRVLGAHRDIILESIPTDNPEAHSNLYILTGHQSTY
Sequence of UniProt Q9H1R3 (whole entry, looked up): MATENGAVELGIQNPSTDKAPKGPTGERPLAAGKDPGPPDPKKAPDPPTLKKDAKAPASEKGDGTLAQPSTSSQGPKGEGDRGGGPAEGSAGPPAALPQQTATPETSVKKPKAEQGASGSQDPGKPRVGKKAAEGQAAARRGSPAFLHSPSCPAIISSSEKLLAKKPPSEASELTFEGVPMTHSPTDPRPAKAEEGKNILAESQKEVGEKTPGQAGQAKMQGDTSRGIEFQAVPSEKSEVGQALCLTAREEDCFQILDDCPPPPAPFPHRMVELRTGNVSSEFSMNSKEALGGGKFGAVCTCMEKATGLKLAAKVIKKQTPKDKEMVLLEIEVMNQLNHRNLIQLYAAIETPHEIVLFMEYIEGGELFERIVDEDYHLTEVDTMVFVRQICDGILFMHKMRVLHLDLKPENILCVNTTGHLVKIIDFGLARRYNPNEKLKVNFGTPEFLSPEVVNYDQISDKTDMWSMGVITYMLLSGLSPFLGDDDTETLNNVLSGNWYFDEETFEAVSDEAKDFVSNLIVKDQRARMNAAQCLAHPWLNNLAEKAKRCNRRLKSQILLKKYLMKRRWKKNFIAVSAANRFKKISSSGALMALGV
Sequence of UniProt Q14004 (whole entry, looked up): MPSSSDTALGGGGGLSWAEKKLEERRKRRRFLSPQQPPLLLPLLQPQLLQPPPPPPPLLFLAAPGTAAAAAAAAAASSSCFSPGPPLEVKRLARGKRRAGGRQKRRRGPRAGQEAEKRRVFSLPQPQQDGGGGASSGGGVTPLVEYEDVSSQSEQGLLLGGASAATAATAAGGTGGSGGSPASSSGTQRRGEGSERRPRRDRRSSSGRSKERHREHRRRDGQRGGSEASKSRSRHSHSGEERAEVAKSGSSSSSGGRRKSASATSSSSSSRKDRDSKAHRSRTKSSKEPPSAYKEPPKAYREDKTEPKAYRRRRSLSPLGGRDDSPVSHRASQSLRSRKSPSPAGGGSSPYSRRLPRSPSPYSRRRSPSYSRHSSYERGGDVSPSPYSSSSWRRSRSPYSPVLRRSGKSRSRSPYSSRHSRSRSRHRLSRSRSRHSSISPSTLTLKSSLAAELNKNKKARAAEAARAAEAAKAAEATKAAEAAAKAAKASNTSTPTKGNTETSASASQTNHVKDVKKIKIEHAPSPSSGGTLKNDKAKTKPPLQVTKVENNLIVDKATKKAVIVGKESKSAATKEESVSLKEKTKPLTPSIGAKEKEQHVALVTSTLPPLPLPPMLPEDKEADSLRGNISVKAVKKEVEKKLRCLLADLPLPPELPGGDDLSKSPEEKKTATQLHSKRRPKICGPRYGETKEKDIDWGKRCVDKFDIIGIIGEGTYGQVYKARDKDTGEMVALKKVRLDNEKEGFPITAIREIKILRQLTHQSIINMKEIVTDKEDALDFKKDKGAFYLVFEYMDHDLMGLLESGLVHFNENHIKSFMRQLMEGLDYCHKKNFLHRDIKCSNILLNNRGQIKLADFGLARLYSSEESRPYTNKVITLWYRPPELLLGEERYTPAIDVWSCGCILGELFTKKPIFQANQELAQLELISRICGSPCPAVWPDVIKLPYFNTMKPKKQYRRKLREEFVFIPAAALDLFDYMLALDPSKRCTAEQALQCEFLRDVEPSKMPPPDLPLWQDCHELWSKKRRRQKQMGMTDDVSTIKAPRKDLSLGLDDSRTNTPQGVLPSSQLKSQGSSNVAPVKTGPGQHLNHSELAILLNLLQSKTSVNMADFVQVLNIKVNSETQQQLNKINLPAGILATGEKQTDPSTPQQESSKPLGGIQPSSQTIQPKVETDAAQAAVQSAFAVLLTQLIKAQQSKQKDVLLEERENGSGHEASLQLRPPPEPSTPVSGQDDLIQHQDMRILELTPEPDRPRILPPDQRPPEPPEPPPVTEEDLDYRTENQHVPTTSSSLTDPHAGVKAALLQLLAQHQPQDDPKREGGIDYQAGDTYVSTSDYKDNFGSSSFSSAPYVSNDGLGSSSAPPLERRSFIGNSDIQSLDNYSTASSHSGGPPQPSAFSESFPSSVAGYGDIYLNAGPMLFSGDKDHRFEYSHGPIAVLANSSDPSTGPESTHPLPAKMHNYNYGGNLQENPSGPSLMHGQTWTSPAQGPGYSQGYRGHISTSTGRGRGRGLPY

Set 1
Target: Activin receptor type-1-like (ACVRL1, Homo sapiens, UniProt P37023)
Sequence of UniProt P37023 (whole entry, looked up): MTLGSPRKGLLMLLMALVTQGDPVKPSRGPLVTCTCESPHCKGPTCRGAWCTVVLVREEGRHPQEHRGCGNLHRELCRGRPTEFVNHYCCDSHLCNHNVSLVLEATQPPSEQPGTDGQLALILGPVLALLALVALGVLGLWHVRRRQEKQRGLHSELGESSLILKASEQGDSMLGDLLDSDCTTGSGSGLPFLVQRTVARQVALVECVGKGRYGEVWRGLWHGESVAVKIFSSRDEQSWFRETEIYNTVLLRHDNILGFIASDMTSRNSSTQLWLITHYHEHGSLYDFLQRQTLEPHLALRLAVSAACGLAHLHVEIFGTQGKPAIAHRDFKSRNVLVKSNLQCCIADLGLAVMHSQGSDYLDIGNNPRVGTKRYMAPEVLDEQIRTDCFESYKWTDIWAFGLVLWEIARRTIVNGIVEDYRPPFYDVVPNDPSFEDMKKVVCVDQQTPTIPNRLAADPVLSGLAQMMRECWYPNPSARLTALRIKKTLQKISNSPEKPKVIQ
Effect on: enzyme activity
Action: inhibitor
Tested at: 0.5 µM
Reference: control
| SMILES | remaining activity |
| --- | --- |
| COc1ccc(OC)c2c(=S)c3ccccc3[nH]c12 | 99% |
| Oc1ccc(-c2nc(-c3ccncc3)c(-c3ccc(F)cc3)[nH]2)cc1 | 95.4% |
| O=C(CCCc1ccc(-c2ccccc2F)cc1)Nc1ccc(O)cc1 | 101% |
| COc1ccc(C(=O)Nc2sc3c(c2C(N)=O)CCCC3)cc1OC | 110% |
| OCC(O)CCON=C1C(c2c(O)[nH]c3ccccc23)=Nc2ccccc21 (stereo not shown) | 103% |
| O=C(Nc1cccc(Nc2cc(Nc3cccc(C(F)(F)F)c3)ncn2)c1)C1CC1 | 114% |
| COc1cc2ncnc(Nc3ccc(Oc4ccccc4)cc3)c2cc1OC | 100% |
| CN(C)c1ccc(C=C2C(=O)Nc3ccccc32)cc1 | 104% |
| COc1cc2nccc(Oc3ccc(NC(=S)NC(=O)c4ccccc4C)cc3)c2cc1OC | 91.7% |
| NCCNc1ncc(C(N)=O)c(Nc2cccc(C(F)(F)F)c2)n1 | 99.4% |
| CC(C)[C@H](CO)Nc1nc(Nc2cc(N)cc(Cl)c2)c2ncn(C(C)C)c2n1 | 109% |
| Nc1ncnc2n[nH]c(Nc3ccc(F)cc3)c12 | 108% |
| N#CC(C#N)=C(N)/C(C#N)=C/c1ccc(O)cc1 | 88.8% |
| CCOC(=O)c1c(C)[nH]c(/C=C2\C(=O)Nc3ccccc32)c1C | 94.8% |
| Cn1c2ccccc2c2c3c(c4c5ccccc5n(CCC#N)c4c21)CNC3=O | 73.6% |

Set 2
Target: Calcium/calmodulin-dependent protein kinase type II subunit alpha (CAMK2A, Homo sapiens, UniProt Q9UQM7)
Sequence of UniProt Q9UQM7 (whole entry, looked up): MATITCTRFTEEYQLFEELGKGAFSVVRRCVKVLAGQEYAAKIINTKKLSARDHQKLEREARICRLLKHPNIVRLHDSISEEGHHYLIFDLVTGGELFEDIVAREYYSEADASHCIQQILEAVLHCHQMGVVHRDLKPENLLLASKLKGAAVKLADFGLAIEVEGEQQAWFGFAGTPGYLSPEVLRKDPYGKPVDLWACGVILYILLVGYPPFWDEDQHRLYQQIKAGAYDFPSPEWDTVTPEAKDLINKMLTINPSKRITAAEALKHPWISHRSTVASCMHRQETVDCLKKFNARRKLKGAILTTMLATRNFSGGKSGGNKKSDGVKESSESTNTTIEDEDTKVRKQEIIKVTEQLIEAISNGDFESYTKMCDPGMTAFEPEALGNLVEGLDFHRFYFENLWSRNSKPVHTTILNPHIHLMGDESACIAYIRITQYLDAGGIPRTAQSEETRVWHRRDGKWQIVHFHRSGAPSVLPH
Effect on: enzyme activity
Action: inhibitor
Tested at: 10 µM
| SMILES | inhibition [%] |
| --- | --- |
| CC(=O)O[C@]1(C(C)=O)CC[C@H]2[C@@H]3C=C(C)C4=CC(=O)CC[C@@H]4[C@H]3CC[C@@]21C | -2 |
| NCC(c1ccc(O)cc1)C1(O)CCCCC1 (stereo not shown) | 2 |
| CC(=O)[C@]1(O)Cc2c(O)c3c(c(O)c2[C@@H](O[C@H]2C[C@H](N)[C@H](O)[C@H](C)O2)C1)C(=O)c1c(O)cccc1C3=O | 31 |
| C#C[C@]1(O)CC[C@H]2[C@@H]3CCC4=CCCC[C@@H]4[C@H]3C(=C)C[C@@]21CC | -6 |
| COc1ccc(-c2cc(=O)c3c(O)c(OC)c(OC)cc3o2)cc1O | 8 |
| CCCCCCCCCCCCC/C=C/[C@@H](O)[C@@H](N)COP(=O)(O)O | 12 |
| Cn1c(=O)ccn([C@@H]2O[C@H](CO)[C@@H](O)[C@H]2O)c1=O | 4 |

Set 3
Species: mouse
Sample: microsomes or S9
Tested at: 2 µM
Time: 0.5 h
| SMILES | remaining compound |
| --- | --- |
| Cc1ccc(S(=O)(=O)n2c(N)nc3ccccc32)cc1 | 0.827% |
| C[C@H](Nc1nc(N)nc2[nH]cnc(=O)c12)c1cc2cccc(Cl)c2c(=O)n1-c1ccccc1 | 69.4% |
| CCCC(NC(=O)c1c2c(nc3ccccc13)C(=O)N(C1CCCCC1)C2)c1cccs1 (stereo not shown) | 38.6% |
| OC1=C2C(=Nc3ncnn3C2c2cn(-c3ccccc3)nc2-c2cccnc2)CCC1 (stereo not shown) | 16.3% |
| CCOC(=O)C1C2CN(c3ccc(C(=O)NCCNC(=O)N4CCN(C)CC4)cn3)CC21 (stereo not shown) | 93.1% |
| Cc1ccc(N(C(C)C(=O)N(C)C)S(C)(=O)=O)cc1 (stereo not shown) | 41.6% |
| CC(C)Oc1ccc(CN2C(=O)c3cc4ccsc4n3CC2(C)C(=O)NCc2ccc(F)cc2)cc1 (stereo not shown) | 79.2% |
| COc1cc(OC)c2[nH]c(C(=O)OCc3ncc(Cl)n3C)cc2c1 | 0.342% |

Set 4
SMILES: CN([C@@H]1CCc2c(CC(=O)O)c3ccccc3n2C1)S(=O)(=O)c1ccc(F)cc1
Effect on: cell-free assay
Method: competition with immobilised ligand
Tested at: 1 µM
| target | remaining binding [%] |
| --- | --- |
| CDK13 (Homo sapiens, UniProt Q14004) | 95 |
| STK36 (Homo sapiens, UniProt Q9NRP7) | 100 |
| EPHA7 (Homo sapiens, UniProt Q15375) | 100 |
| MYLK2 (Homo sapiens, UniProt Q9H1R3) | 100 |
| DYRK1B (Homo sapiens, UniProt Q9Y463) | 44 |
| Aurora kinase C (AURKC, Homo sapiens, UniProt Q9UQB9) | 100 |
| MAP4K2 (Homo sapiens, UniProt Q12851) | 87 |
